Experimental data from different studies.
Parts stem from different laboratories: compare values within a part only. Substitutions count along the parent as printed.

Set 1
Target: ABI1, truncated, D143A, DHFR fusion (Arabidopsis thaliana)
Method: DHFR PCA, deep sequencing
Medium: yeast
Notes: methotrexate growth selection, single substitutions
Together with: (+)-ABA 0.0091 µM
Baseline: wild-type fitted maximum
Direction: higher = stronger binding
Measurement: relative binding score
Starting sequence: PYL1, truncated, DHFR fusion (Arabidopsis thaliana); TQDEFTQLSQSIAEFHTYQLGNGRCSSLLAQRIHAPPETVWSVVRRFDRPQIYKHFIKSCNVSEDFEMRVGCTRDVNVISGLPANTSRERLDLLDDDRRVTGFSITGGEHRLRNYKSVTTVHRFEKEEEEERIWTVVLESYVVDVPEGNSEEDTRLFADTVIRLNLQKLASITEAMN; partner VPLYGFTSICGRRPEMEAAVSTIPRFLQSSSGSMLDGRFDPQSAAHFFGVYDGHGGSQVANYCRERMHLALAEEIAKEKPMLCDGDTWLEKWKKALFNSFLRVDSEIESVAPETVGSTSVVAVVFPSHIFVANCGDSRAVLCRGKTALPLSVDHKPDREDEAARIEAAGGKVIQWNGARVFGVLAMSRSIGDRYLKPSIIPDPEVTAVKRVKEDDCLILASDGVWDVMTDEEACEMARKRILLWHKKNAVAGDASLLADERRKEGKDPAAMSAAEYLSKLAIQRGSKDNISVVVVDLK
H122P: 4.61%
V76M: 1.69%
A170Y: -1.68%
R32E: 28.5%
K54I: 0.736%
E130I: 6.54%
P36T: 17.3%
F124P: 0.167%

Set 2
Target: CCNB2, cyclin fold, Cln2 fusion (human)
Method: yeast growth competition, sequencing
Medium: yeast
Notes: weak parent motif
Baseline: not given
Direction: higher = stronger binding
Measurement: normalised enrichment score
Starting sequence: CDC42EP1 docking peptide (human); SLVVGKLSFDSSP
L7A: -0.239
S1A: -0.366
V3A: -0.516
K6A: -0.9
G5A: 0.326
P13A: -0.223

Set 3
Target: Histone acetyltransferase KAT6A, winged helix 1, GST fusion (KAT6A, Homo sapiens, UniProt Q92794, residues 1-85)
Method: protein binding microarray
Molecule type: double-stranded DNA, one strand shown
Medium: in vitro
Tested at: not given
Notes: 8-mer, flanks averaged, mean of 2 arrays, mostly near background
Baseline: not given
Direction: higher = stronger binding
Measurement: E-score
Construct (chain): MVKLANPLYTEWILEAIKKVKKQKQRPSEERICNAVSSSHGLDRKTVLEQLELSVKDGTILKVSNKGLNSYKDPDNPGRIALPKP
CATCGCTC: 0.183
GCGTCTTA: 0.187
AAGACATG: -0.0942
AAGACGCC: 0.175
ATGCAGAA: -0.16
ATAAGAAT: -0.0595
CATTCCTA: -0.213
CCCCGCTC: 0.255
ACGTGGTG: -0.0574

Mixed results
PhoQ, residues 284 288 289 292 302 303 NLGVHL
fold induction (PhoP, residues 12 14 15 18 19 VQGLL (Escherichia coli, UniProt P23836); Sort-seq, item: YFP reporter; E. coli; PhoQ-PhoP variant library, together with: 10 µM Mg2+; baseline: high Mg2+ state, higher = stronger signaling): 2.81

For quick reference, copied from above (set 2):
S1A: -0.366
V3A: -0.516
K6A: -0.9
